{"data": "Published values collected from several papers", "note": "Parts stem from different laboratories: compare values within a part only. Values joined by “and” are separate records of one study, mostly repeats; a detail may differ.", "UniProt P49841, sequence (whole entry, looked up)": "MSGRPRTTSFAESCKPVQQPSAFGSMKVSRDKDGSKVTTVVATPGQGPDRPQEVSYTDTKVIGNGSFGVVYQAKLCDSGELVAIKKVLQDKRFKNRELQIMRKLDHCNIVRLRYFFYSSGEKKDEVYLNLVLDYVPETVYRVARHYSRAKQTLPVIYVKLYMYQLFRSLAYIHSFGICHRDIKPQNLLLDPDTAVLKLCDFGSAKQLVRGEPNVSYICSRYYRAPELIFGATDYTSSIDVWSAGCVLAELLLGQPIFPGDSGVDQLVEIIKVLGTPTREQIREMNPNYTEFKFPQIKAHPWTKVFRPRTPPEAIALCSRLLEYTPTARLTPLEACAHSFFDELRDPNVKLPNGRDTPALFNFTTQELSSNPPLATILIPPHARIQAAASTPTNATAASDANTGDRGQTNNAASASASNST", "UniProt Q6ZN16, sequence (whole entry, looked up)": "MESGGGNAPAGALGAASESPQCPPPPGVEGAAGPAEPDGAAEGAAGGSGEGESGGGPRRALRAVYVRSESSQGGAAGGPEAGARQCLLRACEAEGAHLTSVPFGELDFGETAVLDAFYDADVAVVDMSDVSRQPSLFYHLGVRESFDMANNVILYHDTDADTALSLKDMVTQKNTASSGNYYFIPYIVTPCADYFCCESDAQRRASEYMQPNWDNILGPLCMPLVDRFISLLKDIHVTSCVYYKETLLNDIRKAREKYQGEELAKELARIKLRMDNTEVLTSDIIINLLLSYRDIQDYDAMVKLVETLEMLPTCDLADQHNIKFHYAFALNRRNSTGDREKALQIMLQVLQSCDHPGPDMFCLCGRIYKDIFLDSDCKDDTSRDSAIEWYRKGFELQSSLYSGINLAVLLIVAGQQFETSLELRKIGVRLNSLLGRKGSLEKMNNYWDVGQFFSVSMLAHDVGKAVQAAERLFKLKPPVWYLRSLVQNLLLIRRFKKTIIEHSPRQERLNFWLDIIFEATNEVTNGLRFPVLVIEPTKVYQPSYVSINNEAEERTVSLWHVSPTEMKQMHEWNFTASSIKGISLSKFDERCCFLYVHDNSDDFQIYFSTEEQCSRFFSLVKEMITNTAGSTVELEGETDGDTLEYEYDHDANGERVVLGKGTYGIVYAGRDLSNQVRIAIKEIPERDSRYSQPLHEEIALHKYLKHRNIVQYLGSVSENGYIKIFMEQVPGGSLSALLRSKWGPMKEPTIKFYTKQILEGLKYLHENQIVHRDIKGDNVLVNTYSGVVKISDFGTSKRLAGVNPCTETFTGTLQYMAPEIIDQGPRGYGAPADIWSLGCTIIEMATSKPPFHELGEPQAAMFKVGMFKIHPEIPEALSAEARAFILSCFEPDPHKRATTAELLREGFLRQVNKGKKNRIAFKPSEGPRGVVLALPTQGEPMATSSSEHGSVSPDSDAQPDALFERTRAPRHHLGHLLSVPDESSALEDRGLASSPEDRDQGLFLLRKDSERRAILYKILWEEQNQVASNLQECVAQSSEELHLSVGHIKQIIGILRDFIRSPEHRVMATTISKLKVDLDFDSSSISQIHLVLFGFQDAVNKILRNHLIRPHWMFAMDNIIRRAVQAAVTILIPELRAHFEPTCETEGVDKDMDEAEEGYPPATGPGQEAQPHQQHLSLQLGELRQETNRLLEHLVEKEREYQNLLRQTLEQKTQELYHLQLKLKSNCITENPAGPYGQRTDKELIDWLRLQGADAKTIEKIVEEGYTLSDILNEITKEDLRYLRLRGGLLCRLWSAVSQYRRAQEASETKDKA", "UniProt O00238, sequence (whole entry, looked up)": "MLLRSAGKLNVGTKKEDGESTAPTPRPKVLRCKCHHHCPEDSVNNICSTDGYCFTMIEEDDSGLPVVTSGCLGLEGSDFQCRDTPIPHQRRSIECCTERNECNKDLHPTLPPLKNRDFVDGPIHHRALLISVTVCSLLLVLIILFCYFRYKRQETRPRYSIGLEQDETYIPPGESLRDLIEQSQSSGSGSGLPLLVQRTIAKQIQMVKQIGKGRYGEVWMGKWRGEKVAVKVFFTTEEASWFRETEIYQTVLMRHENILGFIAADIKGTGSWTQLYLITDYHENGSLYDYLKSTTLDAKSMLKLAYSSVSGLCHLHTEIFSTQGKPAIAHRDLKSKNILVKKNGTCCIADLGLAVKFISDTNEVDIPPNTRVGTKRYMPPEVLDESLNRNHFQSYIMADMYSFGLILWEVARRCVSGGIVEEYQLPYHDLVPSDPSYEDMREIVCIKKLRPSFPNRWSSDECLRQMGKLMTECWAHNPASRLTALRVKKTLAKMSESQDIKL", "UniProt O00141, sequence (whole entry, looked up)": "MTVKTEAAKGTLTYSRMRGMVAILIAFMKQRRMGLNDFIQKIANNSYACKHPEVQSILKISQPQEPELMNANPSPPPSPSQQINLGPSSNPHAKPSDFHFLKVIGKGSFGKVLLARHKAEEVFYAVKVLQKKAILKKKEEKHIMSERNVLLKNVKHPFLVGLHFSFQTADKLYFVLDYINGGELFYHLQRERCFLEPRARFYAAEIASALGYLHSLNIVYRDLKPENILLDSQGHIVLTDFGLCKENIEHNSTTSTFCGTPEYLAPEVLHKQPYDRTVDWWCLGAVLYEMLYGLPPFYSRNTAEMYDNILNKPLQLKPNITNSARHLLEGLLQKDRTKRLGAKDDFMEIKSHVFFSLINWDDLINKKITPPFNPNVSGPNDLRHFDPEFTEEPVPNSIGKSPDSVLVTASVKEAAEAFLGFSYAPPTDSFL", "UniProt Q13873, sequence (whole entry, looked up)": "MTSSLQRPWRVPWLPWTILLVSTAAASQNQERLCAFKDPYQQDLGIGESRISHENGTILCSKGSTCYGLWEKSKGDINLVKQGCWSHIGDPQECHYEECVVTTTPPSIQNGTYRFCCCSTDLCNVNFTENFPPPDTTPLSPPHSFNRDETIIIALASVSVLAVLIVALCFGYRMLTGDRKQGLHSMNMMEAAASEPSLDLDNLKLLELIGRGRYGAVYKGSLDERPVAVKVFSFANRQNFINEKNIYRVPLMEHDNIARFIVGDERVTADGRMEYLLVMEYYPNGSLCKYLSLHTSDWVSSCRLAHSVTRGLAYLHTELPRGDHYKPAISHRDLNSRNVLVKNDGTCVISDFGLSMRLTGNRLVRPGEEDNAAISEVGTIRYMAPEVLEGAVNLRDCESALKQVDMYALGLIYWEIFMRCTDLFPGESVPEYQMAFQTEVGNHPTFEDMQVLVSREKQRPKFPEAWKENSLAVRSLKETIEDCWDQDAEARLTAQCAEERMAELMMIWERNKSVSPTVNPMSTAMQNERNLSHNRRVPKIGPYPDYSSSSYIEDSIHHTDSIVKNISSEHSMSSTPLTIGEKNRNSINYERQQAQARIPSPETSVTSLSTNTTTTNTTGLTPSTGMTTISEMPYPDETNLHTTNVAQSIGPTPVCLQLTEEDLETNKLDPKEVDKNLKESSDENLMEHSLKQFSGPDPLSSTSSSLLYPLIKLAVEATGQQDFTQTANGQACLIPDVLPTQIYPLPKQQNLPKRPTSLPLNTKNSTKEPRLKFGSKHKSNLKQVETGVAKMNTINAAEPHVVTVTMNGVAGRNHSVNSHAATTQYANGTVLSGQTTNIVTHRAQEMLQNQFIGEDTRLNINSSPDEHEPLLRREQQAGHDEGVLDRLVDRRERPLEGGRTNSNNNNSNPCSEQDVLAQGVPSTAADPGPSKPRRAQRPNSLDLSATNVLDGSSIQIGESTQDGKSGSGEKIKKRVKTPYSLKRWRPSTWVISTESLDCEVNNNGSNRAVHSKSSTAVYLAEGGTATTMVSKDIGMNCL", "UniProt O60285, sequence (whole entry, looked up)": "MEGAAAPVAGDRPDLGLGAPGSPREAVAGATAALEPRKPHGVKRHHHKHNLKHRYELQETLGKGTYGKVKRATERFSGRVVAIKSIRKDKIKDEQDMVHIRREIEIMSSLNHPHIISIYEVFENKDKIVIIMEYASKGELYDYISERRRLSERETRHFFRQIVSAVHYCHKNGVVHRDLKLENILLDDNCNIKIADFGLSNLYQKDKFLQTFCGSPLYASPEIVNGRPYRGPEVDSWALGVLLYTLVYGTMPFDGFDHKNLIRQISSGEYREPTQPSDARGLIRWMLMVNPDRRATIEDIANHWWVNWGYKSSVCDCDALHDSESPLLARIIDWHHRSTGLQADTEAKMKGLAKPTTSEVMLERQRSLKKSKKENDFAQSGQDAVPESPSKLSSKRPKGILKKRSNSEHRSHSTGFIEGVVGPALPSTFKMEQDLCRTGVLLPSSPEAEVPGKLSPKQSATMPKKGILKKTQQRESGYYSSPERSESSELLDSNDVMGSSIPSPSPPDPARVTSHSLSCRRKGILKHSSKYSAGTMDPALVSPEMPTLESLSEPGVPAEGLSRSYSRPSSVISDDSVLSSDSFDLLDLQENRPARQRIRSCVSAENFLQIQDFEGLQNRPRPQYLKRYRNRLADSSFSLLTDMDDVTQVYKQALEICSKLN"}
{"data": "Set 1", "SMILES": "Cc1c(C(=O)O)cc(-c2ccc(C3CCNCC3)cc2)c2ccc(-c3ccc(C(F)(F)F)cc3)cc12", "concentration": "1 µM"}
{"target": "TNIK (Homo sapiens, UniProt Q9UKE5)", "read-out": "binding", "method": "competition with immobilised ligand", "remaining binding [%]": 100}
{"target": "NUAK1 (Homo sapiens, UniProt O60285)", "read-out": "binding", "method": "competition with immobilised ligand", "remaining binding [%]": 100}
{"target": "GSK3B (Homo sapiens, UniProt P49841)", "read-out": "cell-free assay", "method": "competition with immobilised ligand", "remaining binding [%]": 100}
{"target": "CLK3 (Homo sapiens, UniProt P49761)", "read-out": "binding", "method": "competition with immobilised ligand", "remaining binding [%]": 100}
{"target": "BMPR1B (Homo sapiens, UniProt O00238)", "read-out": "cell-free assay", "method": "competition with immobilised ligand", "remaining binding [%]": 100}
{"target": "MAP4K5 (Homo sapiens, UniProt Q9Y4K4)", "read-out": "binding", "method": "competition with immobilised ligand", "remaining binding [%]": 100}
{"target": "AAK1 (Homo sapiens, UniProt Q2M2I8)", "read-out": "binding", "remaining binding [%]": 100}
{"target": "EPHA8 (Homo sapiens, UniProt P29322)", "read-out": "cell-free assay", "method": "competition with immobilised ligand", "remaining binding [%]": 100}
{"target": "CDK19 (Homo sapiens, UniProt Q9BWU1)", "method": "competition binding", "remaining binding [%]": 100}
{"target": "BMPR2 (Homo sapiens, UniProt Q13873)", "read-out": "cell-free assay", "method": "competition with immobilised ligand", "remaining binding [%]": 100}
{"target": "MAP2K2 (Homo sapiens, UniProt P36507)", "read-out": "binding", "method": "competition with immobilised ligand", "remaining binding [%]": 100}
{"target": "ABL2 (Homo sapiens, UniProt P42684)", "read-out": "binding", "method": "competition with immobilised ligand", "remaining binding [%]": 100}
{"target": "SRC (Homo sapiens, UniProt P12931)", "read-out": "cell-free assay", "method": "competition with immobilised ligand", "remaining binding [%]": 100}
{"target": "MAP3K15 (Homo sapiens, UniProt Q6ZN16)", "read-out": "binding", "method": "competition with immobilised ligand", "remaining binding [%]": 100}
{"data": "Set 2", "host": "human", "medium": "microsomes or S9", "concentration": "2 µM", "time": "0.5 h"}
{"SMILES": "O=C(NCc1cc2n(n1)CCNC2)c1cccc(OCc2cccc(F)c2)c1", "remaining compound [%]": 64.6}
{"SMILES": "OC1=C2C(=Nc3ccccc3NC2c2cccnc2)CC(c2ccccc2)C1 (stereo not shown)", "remaining compound [%]": 68.3}
{"SMILES": "CCCC[S+]([O-])c1[nH]c2c(C(C)C)cccc2c(=O)c1C(C)=O (stereo not shown)", "remaining compound [%]": 13.7}
{"data": "Set 3", "target": "Interferon regulatory factor 7, full length, phosphomimetic (IRF7, Homo sapiens, UniProt Q92985, residues 1-503, S101K/S471D/S472D/S475D/S476D/S477D/S483D/S484D/S487D)", "method": "protein-binding microarray", "molecule type": "double-stranded DNA, one strand shown", "medium": "in vitro", "concentration": "250 nM", "setting": "60-bp whole probe", "together with": "salmon DNA 0.4 mg/ml", "reference": "random background probes", "direction": "higher = stronger binding", "constant ends, left off below": "GCCTAGCAC … GTCTTGATTCGCTTGACGCTGCTG", "UniProt Q92985, sequence (whole entry, unmodified, looked up)": "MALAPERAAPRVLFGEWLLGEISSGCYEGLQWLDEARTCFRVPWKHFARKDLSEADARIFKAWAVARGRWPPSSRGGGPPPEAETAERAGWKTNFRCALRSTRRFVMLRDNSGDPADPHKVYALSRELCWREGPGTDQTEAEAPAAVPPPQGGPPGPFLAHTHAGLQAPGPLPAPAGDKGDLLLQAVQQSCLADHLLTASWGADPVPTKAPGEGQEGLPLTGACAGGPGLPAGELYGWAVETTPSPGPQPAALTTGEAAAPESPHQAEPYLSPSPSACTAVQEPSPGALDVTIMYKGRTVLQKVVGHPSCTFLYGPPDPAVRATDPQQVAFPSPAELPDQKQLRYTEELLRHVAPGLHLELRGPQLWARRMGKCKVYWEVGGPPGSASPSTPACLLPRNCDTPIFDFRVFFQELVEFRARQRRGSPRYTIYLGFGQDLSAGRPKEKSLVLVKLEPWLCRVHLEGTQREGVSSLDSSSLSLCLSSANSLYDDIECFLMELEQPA"}
{"Sequence": "TCAATACTGATTTCCACACTGTGCTAG", "log fluorescence [z-score]": 0.73}
{"Sequence": "TGCCTTTTTTTTTTTTTCTGGTGCTAG", "log fluorescence [z-score]": 1.05}
{"Sequence": "GACGGTATCGACGTTCGGGACGTGCTA", "log fluorescence [z-score]": -0.618}
{"Sequence": "GACGAACTGGGGCATCGAGACGTGCTA", "log fluorescence [z-score]": -0.541}
{"Sequence": "GACCATATCGGGTTTCGAGACGTGCTA", "log fluorescence [z-score]": 2.83}
{"Sequence": "TACGGACTGGGTATCGGGACGTGCTAG", "log fluorescence [z-score]": -0.164}
{"Sequence": "GACGGACTGGGGTATCGGGATGTGCTA", "log fluorescence [z-score]": -0.497}
{"Sequence": "GACGATATCAGTCTCGAGTCGTGCTAG", "log fluorescence [z-score]": 1.75}
{"data": "Set 4", "cell line": "mouse MPNST tumor cells", "method": "high-content immunofluorescence imaging", "item": "nuclear SOX9", "concentration": "10 µM", "time": "12 h", "setting": "mean of 2 replicates", "reference": "DMSO control", "direction": "higher = more nuclear SOX9"}
{"SMILES": "CSc1ccc(C(=O)NC2CCCCC2NC(=O)CNC(=O)c2cc(C(F)(F)F)ccc2NC(=O)NC(C)C)cc1 (stereo not shown)", "nuclear SOX9 intensity": "117 % of DMSO"}
{"SMILES": "N=C(N)NCCCC[C@@H]1NC(=O)CCSSC[C@@H](C(N)=O)NC(=O)[C@@H]2CCCN2C(=O)[C@H](Cc2c[nH]c3ccccc23)NC(=O)[C@H](CC(=O)O)NC(=O)CNC1=O", "nuclear SOX9 intensity": "101 % of DMSO"}
{"SMILES": "COc1cc2c(cc1OC)C(=O)C(CC1CCN(Cc3ccccc3)CC1)C2 (stereo not shown)", "nuclear SOX9 intensity": "128 % of DMSO"}
{"data": "Mixed results"}
{"Structure (SMILES)": "O=C(COc1ccc(Cl)cc1)NC1CCC(NC(=O)COc2ccc(Cl)cc2)CC1 (stereo not shown)", "target or system": "HEK293T ATF4-firefly luciferase reporter", "assay": "integrated stress response, item: ATF4", "setting": "concentration not given", "scale": "reference: DMSO", "endpoint": "reporter signal", "value": "72.7% and 67% and 61.8% and 73.4% and 88% and 76.7% and 71.2%"}
{"Structure (SMILES)": "CCOc1ccc(Nc2c3c(nc4ccccc24)CCC3)cc1", "target or system": "Leishmania donovani", "assay": "parasite killing", "system": "DD8, promastigotes", "setting": "0.66 µM, 72 h", "endpoint": "inhibition", "value": "24% and 20%"}
{"Structure (SMILES)": "CN1C(C(=O)Nc2ccccn2)=C(O)c2ccccc2S1(=O)=O.O", "target or system": "Sarcocystis neurona", "assay": "parasite growth", "setting": "concentration not given, first screen", "scale": "reference: untreated", "endpoint": "log2 fold change", "value": 0.0319}
{"Structure (SMILES)": "CN(C(=O)c1ccn2ncc(-c3ccc(C(N)=O)cc3)c2c1)c1ccc(C#N)cn1", "target or system": "Cryptosporidium parvum", "assay": "time-kill", "system": "HCT-8, nanoluciferase-expressing", "setting": "0.7407 µM, 48 h", "scale": "reference: DMSO control", "endpoint": "luminescence remaining", "value": "10.4% and 11.7%"}
{"Structure (SMILES)": "COc1ccc2[nH]c3c4[nH]c5ccc(OC)cc5c4c4c(c3c2c1)C(=O)NC4=O", "target or system": "SGK1 (Homo sapiens, UniProt O00141)", "assay": "binding", "setting": "1 µM", "endpoint": "remaining binding", "value": "6.8%"}
{"Structure (SMILES)": "CC(C)n1cnc(-c2ccc(F)cc2)c1-c1ncc(C(=O)Nc2ccc(N3CCN(C)CC3)cc2)[nH]1", "assay": "phase 2a trial", "system": "idiopathic pulmonary fibrosis patients", "setting": "oral, 30 mg once daily, CK-MB increased, grade 3", "endpoint": "patients with TEAE", "value": "0%"}
